# Published values gathered from unrelated publications.
# Each numbered part is a random draw from the data of one study; scales do not carry over between parts.

# Study 1
# Target: Histone acetyltransferase KAT6A, both winged helices, GST fusion (KAT6A, Homo sapiens, UniProt Q92794, residues 1-181)
# Method: protein binding microarray
# Molecule type: double-stranded DNA, one strand shown
# Medium: in vitro
# Tested at: not given
# Setting: 8-mer, flanks averaged, mean of 2 arrays, mostly near background
# Reference: not given
# Direction: higher = stronger binding
# Target sequence (chain): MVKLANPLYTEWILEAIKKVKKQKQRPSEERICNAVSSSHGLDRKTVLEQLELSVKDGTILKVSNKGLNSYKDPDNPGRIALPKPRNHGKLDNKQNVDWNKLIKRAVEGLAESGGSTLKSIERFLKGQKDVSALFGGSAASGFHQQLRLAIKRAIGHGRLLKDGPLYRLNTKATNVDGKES
Sequence,E-score
CCTGAGTA,-0.119
TACCCTAA,-0.248
AGAAATCC,0.115
ACAACCCG,0.159
AGGTCTTA,-0.0651
CGATTCAG,0.0264
GTCAAATA,-0.00974
GGTTGGTA,-0.049

# Study 2
# Target: Replicase polyprotein 1ab, nsp13 helicase (rep, Severe acute respiratory syndrome coronavirus 2, UniProt P0DTD1)
# Action: inhibitor
# Tested at: 20 µM
Compound,inhibition
C[N+](C)(C)CCCCCC[N+](C)(C)C,4.22%
Cc1cc(C)nc(NS(=O)(=O)c2ccc(NC(=S)NC(=O)COc3ccc(Br)cc3Cl)cc2)n1,1.3%
Cc1cc(-c2ccc(CC(=O)Nc3ccc(-c4cccnc4)cc3)cc2)ccn1,-4.39%
c1ccc(Oc2cccnc2)cc1,-6.67%
C[N+](C)(C)CCOC(=O)CCC(=O)OCC[N+](C)(C)C,7.44%
CS(=O)(=O)Nc1ccc2oc3c(OC(F)F)ccc(C(=O)Nc4c(Cl)cncc4Cl)c3c2c1,8.29%
COc1cc([C@@H]2c3cc4c(cc3[C@@H](O[C@@H]3O[C@@H]5CO[C@@H](c6cccs6)O[C@H]5[C@H](O)[C@H]3O)[C@H]3COC(=O)[C@H]23)OCO4)cc(OC)c1O,-0.24%
CC1=C(/C=C/C(C)=C/C=C/C(C)=C/C=O)C(C)(C)CCC1,2.51%
CN1C(=O)CC(c2ccccc2)C1=O (centres unmarked),3.8%
NC(N)=Nc1nc(CSCC/C(N)=N/S(N)(=O)=O)cs1,1.38%
O[C@@H]1CO[C@H]2[C@@H]1OC[C@@H]2O,2%
O=C(/C=C/c1ccc2ccccc2n1)c1ccncc1,91.3%
CCNC(=O)/C=C/c1cccc(Br)c1,4.68%
COc1nc(C)cnc1NS(=O)(=O)c1cccnc1-c1ccc(-c2nnco2)cc1,5.06%
COc1ccc(C(C)(C)C)cc1CN[C@H]1C2CCN(CC2)[C@H]1C(c1ccccc1)c1ccccc1,-2.88%
NCCC(O)(P(=O)(O)O)P(=O)(O)O,6.3%
O=C(O)C(Cc1ccccc1[N+](=O)[O-])=NNc1nc(-c2ccc(Cl)c(Cl)c2)cs1 (mixture of isomers),-3.6%
C[n+]1ccc(C(=O)NCc2ccccc2)cc1,9.05%
Cc1c[nH]c(=O)n(CCCN2CCN(c3ccccc3OCC(F)(F)F)CC2)c1=O,5.56%

# Study 3
# Target: Interferon regulatory factor 5, full length, phosphomimetic (IRF5, Homo sapiens, UniProt Q13568-2, residues 1-514, K96S/S451D/S453D/S456D/S462D)
# Method: protein-binding microarray
# Molecule type: double-stranded DNA, one strand shown
# Medium: in vitro
# Tested at: 250 nM
# Setting: 60-bp whole probe
# With: salmon DNA 0.4 mg/ml
# Reference: random background probes
# Direction: higher = stronger binding
# Shared flanks, not repeated: GCCTAGCACT … GTCTTGATTCGCTTGACGCTGCTG
Sequence,log fluorescence
CAAATGTCCTTTCTCCAACTGTGCTA,1 z-score
CACCACCCGCTCTGGCACTGTGCTAG,-0.579 z-score
TAGAACTGGGGATTCGATTAGTGCTA,-0.0555 z-score
TAGGGATCCTTATCCTTTAGTGCTAG,-0.466 z-score
CAAACTTCGGCCTCTAACTGTGCTAG,0.22 z-score
CATATGTACTCTCTCCAACTGTGCTA,0.334 z-score
CATGTCTGGGCATTTTTACTGTGCTA,-0.288 z-score
TCACTTTAAATTAGACTTAGTGCTAG,0.919 z-score

# Study 4
# Organism: SARS-CoV-2
# Observed: cytopathic effect
# Cell line: Vero E6
# Tested at: 10 µM
Structure (SMILES),inhibition
O=C1c2c(O)cccc2Cc2cccc(O)c21,-6%
CN1CCN(C(=O)c2ccc(-c3ccc4c(C=O)c(O)ccc4c3)s2)CC1,-2.7%
CC[N+](C)(CC)CCC[n+]1c(-c2ccccc2)c2cc(N)ccc2c2ccc(N)cc21,3.6%
CN1C(=O)C(N2CCCCC2)S/C1=C\C(=O)O (centres unmarked),13.4%
Cc1ccc(C(=O)n2nc(-c3cccnc3)nc2N)cc1,-6.5%
Cc1ccc(S(=O)(=O)/C=C/C#N)cc1,-32.6%

# For quick reference, copied from above (study 2):
Compound,inhibition
COc1nc(C)cnc1NS(=O)(=O)c1cccnc1-c1ccc(-c2nnco2)cc1,5.06%
COc1ccc(C(C)(C)C)cc1CN[C@H]1C2CCN(CC2)[C@H]1C(c1ccccc1)c1ccccc1,-2.88%
NCCC(O)(P(=O)(O)O)P(=O)(O)O,6.3%
O=C(O)C(Cc1ccccc1[N+](=O)[O-])=NNc1nc(-c2ccc(Cl)c(Cl)c2)cs1 (mixture of isomers),-3.6%
C[n+]1ccc(C(=O)NCc2ccccc2)cc1,9.05%
Cc1c[nH]c(=O)n(CCCN2CCN(c3ccccc3OCC(F)(F)F)CC2)c1=O,5.56%
